# Experimental data pooled from the literature.
# Parts stem from different laboratories: compare values within a part only.
# Sequence of UniProt P15735 (whole entry, looked up): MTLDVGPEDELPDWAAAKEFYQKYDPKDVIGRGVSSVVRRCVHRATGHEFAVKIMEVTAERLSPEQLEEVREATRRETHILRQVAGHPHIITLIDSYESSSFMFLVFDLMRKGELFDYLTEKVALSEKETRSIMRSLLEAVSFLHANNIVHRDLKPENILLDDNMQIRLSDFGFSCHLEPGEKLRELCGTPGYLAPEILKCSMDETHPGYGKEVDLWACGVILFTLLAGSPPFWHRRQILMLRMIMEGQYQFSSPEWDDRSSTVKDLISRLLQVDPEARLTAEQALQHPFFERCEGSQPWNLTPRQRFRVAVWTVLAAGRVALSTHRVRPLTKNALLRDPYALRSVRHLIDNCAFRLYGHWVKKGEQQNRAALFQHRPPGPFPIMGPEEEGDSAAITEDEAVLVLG
# Sequence of UniProt P25098 (whole entry, looked up): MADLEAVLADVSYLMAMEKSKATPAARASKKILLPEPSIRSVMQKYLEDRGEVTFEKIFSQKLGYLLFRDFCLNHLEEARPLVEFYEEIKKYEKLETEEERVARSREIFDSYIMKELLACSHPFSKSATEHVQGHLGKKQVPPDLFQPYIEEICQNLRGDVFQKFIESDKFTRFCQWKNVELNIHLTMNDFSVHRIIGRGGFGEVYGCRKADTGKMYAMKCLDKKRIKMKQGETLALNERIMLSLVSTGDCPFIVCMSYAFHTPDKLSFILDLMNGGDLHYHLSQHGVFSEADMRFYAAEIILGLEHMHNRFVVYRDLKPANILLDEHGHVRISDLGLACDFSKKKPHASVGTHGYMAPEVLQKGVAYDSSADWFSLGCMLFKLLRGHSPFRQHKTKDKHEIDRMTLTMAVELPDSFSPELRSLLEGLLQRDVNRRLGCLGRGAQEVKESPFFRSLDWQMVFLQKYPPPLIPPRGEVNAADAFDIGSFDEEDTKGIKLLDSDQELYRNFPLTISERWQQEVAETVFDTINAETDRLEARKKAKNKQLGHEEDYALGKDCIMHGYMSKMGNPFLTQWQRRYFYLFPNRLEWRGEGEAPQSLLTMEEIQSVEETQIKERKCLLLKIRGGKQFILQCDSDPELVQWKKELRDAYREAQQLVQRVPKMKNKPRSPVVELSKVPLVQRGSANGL
# Sequence of UniProt P49841 (whole entry, looked up): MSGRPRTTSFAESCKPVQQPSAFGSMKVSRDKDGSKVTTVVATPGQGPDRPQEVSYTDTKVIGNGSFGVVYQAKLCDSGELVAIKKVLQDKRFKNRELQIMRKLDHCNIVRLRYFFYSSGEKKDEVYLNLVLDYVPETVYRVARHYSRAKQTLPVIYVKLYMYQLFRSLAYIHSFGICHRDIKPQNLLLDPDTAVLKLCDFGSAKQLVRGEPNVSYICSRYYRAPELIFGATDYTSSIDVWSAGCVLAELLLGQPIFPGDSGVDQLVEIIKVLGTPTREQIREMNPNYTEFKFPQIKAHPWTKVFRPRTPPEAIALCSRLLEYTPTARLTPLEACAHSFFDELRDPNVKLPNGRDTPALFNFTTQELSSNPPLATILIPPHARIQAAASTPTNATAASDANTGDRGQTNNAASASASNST

# Sample 1
# Target: TAR DNA-binding protein 43, full length, His tag (TARDBP, Homo sapiens, UniProt Q13148, residues 1-414)
# Technique: RNA Bind-n-Seq
# Form: RNA
# Sample: in vitro
# Tested at: 20 nM
# Setting: 6-mer, flanks averaged, single round
# Added: 150 mM KCl
# Baseline: input library
# Direction: higher = stronger binding
Sequence,6-mer enrichment (R)
CACCAG,0.749
AAUGUG,1.06
CUUACC,0.58
CAGUCC,0.623
UGCCAC,0.684
CUGUUC,0.587
CAGGGU,2
CCAGUA,0.672

# Sample 2
# Target: Aurora kinase A (AURKA, Homo sapiens, UniProt O14965)
# Sequence of UniProt O14965 (whole entry, looked up): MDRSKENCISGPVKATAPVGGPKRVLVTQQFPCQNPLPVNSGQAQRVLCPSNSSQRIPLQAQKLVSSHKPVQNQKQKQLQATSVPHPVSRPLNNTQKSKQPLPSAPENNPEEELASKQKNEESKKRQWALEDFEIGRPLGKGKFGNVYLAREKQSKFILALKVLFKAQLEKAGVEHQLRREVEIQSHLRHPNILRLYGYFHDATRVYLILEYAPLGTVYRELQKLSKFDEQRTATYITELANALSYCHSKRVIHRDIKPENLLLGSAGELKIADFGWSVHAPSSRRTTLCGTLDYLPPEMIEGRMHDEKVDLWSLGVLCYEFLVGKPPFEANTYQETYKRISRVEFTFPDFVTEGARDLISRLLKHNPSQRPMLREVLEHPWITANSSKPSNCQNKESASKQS
# Read-out: enzyme activity
# Action: inhibitor
# Tested at: 0.5 µM
# Baseline: control
Compound,remaining activity
Cc1ccc(S(=O)(=O)/C=C/C#N)cc1,111%
N#CC(c1ccnc(NCCc2cccnc2)n1)c1nc2ccccc2s1 (centres unmarked),83.8%
O=C1Nc2ccc(Br)cc2/C1=C/c1cc2c([nH]1)CCCC2,87.5%
N#C/C(=C(/N)SC1C=CC=CC1)c1cccc(C(O)c2ccncc2)c1 (centres unmarked),103%
COc1cc2c(N3CCN(C(=O)Nc4ccc(OC(C)C)cc4)CC3)ncnc2cc1OCCCN1CCCCC1,108%
c1ccc2c(-c3ccncc3)c[nH]c2c1,78%
COc1ccc2c(c1)c(C1=C(c3c[nH]c4ccccc34)C(=O)NC1=O)cn2CCCN(C)C,86.6%
c1cc(-c2cnn3cc(-c4ccc(OCCN5CCCCC5)cc4)cnc23)ccn1,74.8%
O=C1NC(=O)c2c1c1c3ccccc3[nH]c1n1cncc21,34.8%
O=Nc1c(-c2c(O)[nH]c3cc(Br)ccc23)[nH]c2ccccc12,17.1%
O=C1NC(=O)/C(=C/c2ccc3c(c2)OC(F)(F)O3)S1,92.4%
CN1CCN(c2ccc3nc(-c4c(N)c5c(F)cccc5[nH]c4=O)[nH]c3c2)CC1,60.6%
FC(F)(F)c1ccc(/C=C/c2nc(COc3ccc(CCCCn4ccnn4)cc3)co2)cc1,111%
COc1ccc(COc2ccc(Cc3cnc(N)nc3N)cc2OC)cc1,105%
O=c1c(-c2ccc(F)cc2)c(-c2ccncc2)[nH]n1-c1ccc(Cl)cc1,94%

# Sample 3
# SMILES: O=C(O)[C@@H]1[C@@H](Cn2nnc3ccccc3c2=O)CC[C@H]1C(=O)c1ccc(OCCC2CCOCC2)cc1
# Read-out: cell-free assay
# Technique: competition with immobilised ligand
# Tested at: 1 µM
target,remaining binding
"Phosphorylase b kinase gamma catalytic chain, liver/testis isoform (PHKG2, Homo sapiens, UniProt P15735)",100%
"Tyrosine-protein kinase ABL1, phosphorylated (ABL1, Homo sapiens, UniProt P00519, Q252H)",92%
"Beta-adrenergic receptor kinase 1 (GRK2, Homo sapiens, UniProt P25098)",78%
"Glycogen synthase kinase-3 beta (GSK3B, Homo sapiens, UniProt P49841)",100%

# Sample 4
# Target: Hepatocyte nuclear factor 3-alpha (Foxa1, Mus musculus, UniProt P35582, residues 1-468, full length assumed)
# Technique: EMSA with sequencing
# Form: double-stranded DNA, one strand shown
# Sample: in vitro
# Tested at: 10 and 20 nM
# Setting: whole designed probe, mean of two concentrations, ends assumed
# Baseline: negative control set to 0
# Direction: higher = stronger binding
# Constant ends, left off below: GTGAGCGGTGCCCATTGATGGGGAAC … TTTCACTGGGATCGTGGGGAC
# Construct (chain): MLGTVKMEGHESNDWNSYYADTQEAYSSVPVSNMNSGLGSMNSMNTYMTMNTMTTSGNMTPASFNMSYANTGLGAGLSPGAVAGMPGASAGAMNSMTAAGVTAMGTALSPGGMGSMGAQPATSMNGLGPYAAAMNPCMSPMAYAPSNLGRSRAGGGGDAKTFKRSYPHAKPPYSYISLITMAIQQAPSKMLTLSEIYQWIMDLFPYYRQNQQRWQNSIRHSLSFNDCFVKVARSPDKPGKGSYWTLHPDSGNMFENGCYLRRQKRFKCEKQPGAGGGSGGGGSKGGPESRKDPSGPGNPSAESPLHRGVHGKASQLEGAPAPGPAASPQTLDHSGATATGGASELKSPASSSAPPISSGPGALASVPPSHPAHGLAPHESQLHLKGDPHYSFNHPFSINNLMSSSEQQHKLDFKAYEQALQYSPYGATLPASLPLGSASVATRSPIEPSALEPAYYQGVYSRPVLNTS
Sequence,normalised bound fraction [ratio]
ATCTTCCCCCTCTTCCTTGCCCCACCAGCTCACCTTCCCGGGTATATTGGAGATAGGAAATTAATATAAGCCGGCATTCGTTAACCCTCTTCTGGCGCAAACTGCTGTTTACTTTGGATGAATCATGGTCCTTTGGCGACGCCAGGCTCCGGGAGAGCAAAGCACCGTGTCAGGGCCATGATCCGGGGTGGCC,0.35
TCCTTTATCCCAACATGTTTATACAGACAAAACCAGGTTAAAATCGACACAAGGTCAACTTGAAATGGGGAAAGAGGAAGGTGAGCTCACAAAATAAACATGAAGTCTTGTGTACAAGCATCTGCAGAAGAGTTCAGCCTCACCACTTGGGTAATGCTGTTGGAATGTGGTCTGGGTTCACTGTATTTGAATG,0.336
TCAGAGCTGTCAGCCTACTTGGCAGGCGACCTGACACTTTAGCTGAGTCACATTTAAAAACAATTTCCTAAGAAGGGTGAGGTCACCATGAGAGCAATCTCCACCAGGCCACAGCTTAATTACTAAGTTGCCAACCTTTAGCTTTCCCCAGAGCCCCCTTATAAAACATTCAGATATCTACTGCCCAACAGTG,-0.0705
ACAGCCTGGTAATACCTCAGGTTCCCAAGAACTCCAGGGCCTGTAAACATGCCAGTCACACGTGGGCCTGCTTAGAAGGCCGATGGCCTTTGAGTAAATAAACAACACCTTGCATAAATCTCTGCACTTTGAGTGGCAAAGAGGCCATTCCCTGAGGGTGACTTGGAAAACCAGAGGTGCAGTGACTCAGCCT,0.45
CATTTTTCTATGAAGTTATAGTCACTTTCACATTTACTGCAAGATGTTTTTCGGATCTCTCCACTGCCGCCTTGTGGCTTTAGAACACAAATCAGATTACTTTGTTTTGTGACATATTTGAATAAAACCATGTATCCTGTTTAGGGCTGGCAATGTGGTAGTGGGAGGGTTGGAAATTGGATACAAAAATTGA,-0.0182
GGTTAAAAAAACATACAAGGATCCAATCCCCCCGTTGGAGACACACAGAGCAACAGTAGGAAGGATACATTTCCAGCAAGCTGTGACTCTTTAAGTAAATACGTAGGAGGAAGCAAGTGCAGATTAAAGTACAGTAACTGTGAGGCATATGACTGCAGTCATGTTTATGAGTGACTTATAAAGAGAGATTTCA,0.335
TCATTCGGTGAATATTGCTAATTACTAGAGCCTTCATGGGCAAAGGACAAGGTGGCTGGGCACTGGCCAACTGCCAGCTGTTTCTGGGCCAAAGCAATCTACTTGTGCCTTAGAATGCACTGGTATGGCTGGTGACAACCCCACCAATCCCTAGAGCTCCACTCCAGCCTCTCAATGGAAAACTTTTCTCCTG,-0.0554
CAAGGAAGGAAGTCATTAACCCACGACCTTGGGTGTGCTACTTTGTACCACTCACCACATGTTAAAACTCTTCTCTCACTATAGGGTAATTTCTTGTTTACTTAAATCCCCAGTTACTTATTCAAAATTTATTCAAAAATATGTGTATTAATTTCTCACTGTGGGTCAGGGACTCTGATAAGGCAGAACCTCT,0.451
